Experimental data gathered from unrelated publications.
“And” joins repeats or separate records; there may be more than shown.
Target: Ephrin type-A receptor 2 (EPHA2, Homo sapiens, UniProt P29317)

`COc1c(OCCCN2CCOCC2)ccc2c1N=C(NC(=O)c1cnc(N)nc1)N1CCN=C21` gave a remaining activity of 102% (kinase activity, inhibitor; 1 µM; baseline: untreated control).
With `Cc1ccc(-c2c(/C=C(\C#N)C(=O)NC(C)C)n(CCCO)c3ncnc(N)c23)cc1` the remaining binding was 100% (cell-free assay, competition with immobilised ligand; 1 µM).
For `COc1ccc(O)cc1-c1c[nH]c2ncc(-c3cncc(C(=O)N(C)C)c3)cc12`, the inhibition was 0.96% (binding, competition with immobilised ligand; 0.2 µM).
`NC(=O)C[C@H]1CCc2sc3ncnc(O[C@H]4CC[C@H](N5CCOCC5)CC4)c3c21` gave an inhibition of 13% (enzyme activity, inhibitor; 10 µM).
`Cc1cccc(O[C@H]2CCC[C@@H](C(C)CNCc3ccncc3)C2)c1` (relative stereo) has an inhibition of -3% (cell-free assay; 10 µM).
`Cc1cccc(-c2ccc3nc(NC(=O)C4CCCCC4)nn3c2)c1` has a remaining activity of 94% (enzyme activity, Dundee kinase panel; 10 µM).
`CN1CCN(Cc2ccc(NC(=O)c3cccc(C#Cc4cnc(N)c5ncccc45)c3)cc2C(F)(F)F)CC1` has a remaining binding of 19% (cell-free assay, competition with immobilised ligand; 50 nM).
For `C=CC(=O)Nc1cccc(-c2cnc3[nH]cc(C(=O)NC(C)(C)C)c3n2)c1`, the inhibition was -2% and -3% (kinase activity; 0.1 µM).
`COc1cc(OC)c(F)c(/C=C/c2cnc3ccn(S(=O)(=O)c4cn(CCF)cn4)c3n2)c1F` gave an inhibition of 0% (1000 nM).
For `CCn1cc(C(=O)O)c(=O)c2c(N)c(F)c(NC3CCCCC3)cc21`, the inhibition was 11.4% (kinase activity; 0.1 µM, with: ATP at Km).
`CNC(=O)C1CCN(c2cc(C)c(F)cc2NC(=O)c2ccc(-c3cc(O)ccc3C)c(C)c2)CC1` gave a remaining binding of 5.4% (binding, competition with immobilised ligand; 1 µM).
`CC(=O)N1c2ccc(-c3ccc(CNC(=O)c4cn5cc(-c6cnc(N)nc6)nc(N6CCOCC6)c5n4)cc3)cc2CC[C@@H]1C` has a remaining binding of 81% (KINOMEscan; 10 µM).
For `Nc1ncc(-c2cc(-c3cnn(CC(F)(F)F)c3)ncc2F)nc1C(=O)NC1CNCC(F)C1` (stereo not drawn), the remaining activity was 98% (enzyme activity; 1 µM; baseline: DMSO control).
With `COc1c(Cl)cccc1Nc1c(-c2ccncc2C#C[C@@]2(C)CCCN2C(=O)/C=C/CN(C)C)[nH]c2c1C(=O)NCC2` the remaining binding was 100% (cell-free assay, competition with immobilised ligand; 3 µM).
`C=C1CCCCCCCCCC(CO)C1=O` (stereo not drawn) has a remaining signal of 100% (cell-free assay; 10 µM).
`CC(C)=CC1OC(C)(C)C2C=C3C(=O)C(Cl)=CC(O)C3C3C(O)C4OC4C(=O)C132` (stereo not drawn) has a remaining binding of 88% (cell-free assay, competition with immobilised ligand; 10 µM).
The remaining binding of `CNC1C[S+]2CC[S+]3CC[S+](C1)[Ru-4]321([N]=C=S)[n]2c3ccc(OC)cc3c3c4c(c5cc(F)c[n+]1c5c32)C(=O)NC4=O` (stereo not drawn) is reported as 92% (KinomeScan; 0.1 µM; baseline: untreated).
With `Cc1cccc(-c2ccc3nc(NC(=O)C4CCCO4)nn3c2)c1` (stereo not drawn) the remaining activity was 87% (enzyme activity, Dundee kinase panel; 10 µM).
For `CN1CCN(Cc2ccc(-c3ccc(CO[C@H]4CCC[C@@H]4NC(=O)c4cc(-c5cnn(C)c5)cnc4N)cc3)cc2)CC1`, the inhibition was 1% (enzyme activity, inhibitor; 0.1 µM).
`CCNc1nc(Nc2cccc(S(=O)(=O)NC)c2)ncc1-c1ccc(F)c(OC)c1` gave a residence time of 0.05 min (binding, SPR).
With `Nc1ncc2c(n1)-c1c([nH]c3ccc(C4=CCOCC4)cc13)CCC2` the remaining binding was 87% (binding, competition with immobilised ligand; 1 µM).
The remaining binding of `COc1ccc(NC(=O)Nc2ccc3c(c2)C(=O)N(C(C)CO)CC(C)C(CN(C)Cc2ccc4c(c2)OCO4)O3)cc1` (stereo not drawn) is reported as 86% (binding, competition with immobilised ligand; 10 µM).
With `CCN1CCN(Cc2ccc(NC(=O)c3ccc(C)c(NC(=O)c4cncc(-c5cccs5)c4)c3)cc2C(F)(F)F)CC1` the remaining binding was 1.5% (binding, competition with immobilised ligand; 1 µM).
`Nc1nc(Nc2ccccc2)sc1C(=O)c1ccccc1` has a remaining activity of 77% (enzyme activity, inhibitor; 10 µM).

For quick reference, copied from above:
`Cc1cccc(-c2ccc3nc(NC(=O)C4CCCCC4)nn3c2)c1` has a remaining activity of 94% (enzyme activity, Dundee kinase panel; 10 µM).
`CN1CCN(Cc2ccc(NC(=O)c3cccc(C#Cc4cnc(N)c5ncccc45)c3)cc2C(F)(F)F)CC1` has a remaining binding of 19% (cell-free assay, competition with immobilised ligand; 50 nM).
